# Published values gathered from unrelated publications.
# Parts stem from different laboratories: compare values within a part only. Substitutions count along the parent as printed.

# Study 1
# Target: CCNA2, cyclin fold, Cln2 fusion (human)
# Technique: yeast growth competition, sequencing
# Matrix: yeast
# Setting: strong parent motif
# Reference: not given
# Direction: higher = stronger binding
# Starting sequence: PKN2 docking peptide (human); VSAVRKLDFSDTM
Variant,normalised enrichment score
VSAVRKLDFSTTM [D11T],5.37
VSAVRKLDFNDTM [S10N],5.03
VSAVRKLMFSDTM [D8M],4.73
VSAVKKLDFSDTM [R5K],4.52
VSAVRKLDFGDTM [S10G],5.48
VSAQRKLDFSDTM [V4Q],5.5
VSAVRKLDFSDAM [T12A],5.57
VSARRKLDFSDTM [V4R],6.01
VSAVRALDFSDTM [K6A],4.49
VSAVRKLDVSDTM [F9V],0.545
VSAVRKLDFSDRM [T12R],5.5

# Study 2
# Target: Interferon regulatory factor 5, full length, phosphomimetic (IRF5, Homo sapiens, UniProt Q13568-2, residues 1-514, K96S/S451D/S453D/S456D/S462D)
# Technique: protein-binding microarray
# Form: double-stranded DNA, one strand shown
# Matrix: in vitro
# Tested at: 250 nM
# Setting: 60-bp whole probe
# Added: salmon DNA 0.4 mg/ml
# Reference: random background probes
# Direction: higher = stronger binding
# Shared flanks, not repeated: GCCTAGCAC … GTCTTGATTCGCTTGACGCTGCTG
Strand,log fluorescence [z-score]
TTTGCTTTCCTTTATGTACTGTGCTAG,2.05
TCATTTCTCTGCTACCCTACTGTGCTA,1.03
GACGGGATCGGGACTGGGGACGTGCTA,-0.514
TTAGATTTCGGTTATCGATTAGTGCTA,9.52
TTAGGACCGGGTCTCGGTTAGTGCTAG,0.117
GACGGTATCAGGTTTCGGGACGTGCTA,3.39
TCATCATTGCCTATTTTACTGTGCTAG,0.582
TTAGGACTGGACAATCGGTTAGTGCTA,0.488
CTTGGCTTCTCCCACAGGTGGTGCTAG,-0.574
GACGCTATCGGGACTGGGGACGTGCTA,1.33
GAAGATCTCAGACTGGAGACGTGCTAG,-0.337
GACGCTTCCCTTTTCCTGACGTGCTAG,0.186
TTACGACTGGGACTGGGTTAGTGCTAG,0.157
TCATATATACTATATGCAACTGTGCTA,0.543
GACGGACTGCTGCTGCTGACGTGCTAG,-0.811
CCTTGTACGTCGTTTCCCAAGGTGCTA,0.0203
TCAGGACTGGGGTATCGGTTAGTGCTA,2.1
TTAGGTCTCCTTAGCCTTTAGTGCTAG,-0.322
CTCGGTTTCCAAATTGTCTCGTGCTAG,0.72
TCACGGATGATCTCTCTGACTGTGCTA,-0.128
TTTTTTTTTTTTTTACTTCGGTGCTAG,1.47
GACGGTCTCGGCTTCGGGACGTGCTAG,-0.179
GTAGATCTCAGTTTCGATTAGTGCTAG,9.21
GACGGAATCCTTTTCCTGACGTGCTAG,-0.094
TCATATATATCATTTAAACTGTGCTAG,1.25

# Study 3
# Target: Histone acetyltransferase KAT6A, winged helix 1, GST fusion (KAT6A, Homo sapiens, UniProt Q92794, residues 1-85)
# Technique: protein binding microarray
# Form: double-stranded DNA, one strand shown
# Matrix: in vitro
# Tested at: not given
# Setting: 8-mer, flanks averaged, mean of 2 arrays, mostly near background
# Reference: not given
# Direction: higher = stronger binding
# Target sequence (chain): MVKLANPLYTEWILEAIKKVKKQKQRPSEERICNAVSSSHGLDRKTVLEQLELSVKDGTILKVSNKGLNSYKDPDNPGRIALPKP
Strand,E-score
AAATAATA,-0.142
TACCCAGA,-0.28
AGGCTAGC,-0.103
ATAGTCCC,0.11
AACAGTAC,0.0364
TACTGCCA,-0.038
GGGAACCC,0.116
AAGCAGAG,-0.373
ATTCCAAG,-0.272
AACCTCAT,-0.154
CAATGAAG,-0.197
CAACTTAC,-0.159
AGCTCGTC,-0.157
CGAACCGC,0.332
CCCGTCCG,0.423
AGTAAGCG,0.0866
CACTGTCC,0.0552
AAAGAGCA,-0.0445
ACATCCCG,0.262
AACCCATG,-0.151
ATATCTAA,-0.117
ATTCTTAA,-0.0664
TCCACCAA,-0.324
GCCCATTA,-0.0756
GCGCTTCC,0.403

# Study 4
# Target: Centromere-binding protein 1, full length, His-tagged (CBF1, Saccharomyces cerevisiae, UniProt P17106, residues 1-351)
# UniProt P17106, sequence (whole entry, looked up): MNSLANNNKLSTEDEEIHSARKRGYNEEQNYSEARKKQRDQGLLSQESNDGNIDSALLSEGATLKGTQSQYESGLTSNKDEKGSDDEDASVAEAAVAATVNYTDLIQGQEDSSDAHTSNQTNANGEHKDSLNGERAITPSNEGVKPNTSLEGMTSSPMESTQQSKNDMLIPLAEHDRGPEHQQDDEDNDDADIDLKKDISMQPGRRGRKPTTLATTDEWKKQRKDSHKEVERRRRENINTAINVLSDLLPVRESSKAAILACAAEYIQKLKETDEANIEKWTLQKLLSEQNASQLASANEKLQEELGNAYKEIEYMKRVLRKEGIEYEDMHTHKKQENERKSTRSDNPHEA
# Technique: competition protein-binding microarray
# Form: double-stranded DNA, one strand shown
# Matrix: in vitro
# Tested at: 2 µM
# Setting: whole 60-bp probe, lowest competitor level
# Added: Pho4 competitor, 0.05 µM
# Direction: higher = stronger binding
Strand,fluorescence intensity [a.u.]
GCCCAGGAGTTCTGGCACGTTGTTTTGAGGCTAAGTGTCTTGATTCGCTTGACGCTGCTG,141
GTATTTATGGCCTGGCACGTTCATTTCCTACATCCTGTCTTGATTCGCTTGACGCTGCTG,94.3
CCCGCGGGTCGCTATCACGATTCAGCACCCTTTGGAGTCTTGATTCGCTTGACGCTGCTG,69.7
ATCGAATTCCTTTGTAACGTGCAAAGCATTTTATAGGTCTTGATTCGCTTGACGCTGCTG,186
ACTCCATATCCTTATCATGTGCCGTAGTACATTGTGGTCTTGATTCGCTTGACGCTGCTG,519
TTGGTACTGGTATTGCACGTGGAAGTGGCGGAGCAGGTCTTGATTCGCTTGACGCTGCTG,699
CGGGGTTAAGTTTGAGTCGTGGGTGGCTTGCAGCAGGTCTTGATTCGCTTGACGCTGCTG,76.6
CTAACGAAGGTTTGGGTGGTGGGTGACAAGCCAAGTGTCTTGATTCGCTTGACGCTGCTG,68
TCTGGATCAGAAGATTACGTGTCCTGAGAAGATTATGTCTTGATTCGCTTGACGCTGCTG,75.9
GGTCCCGGTCTACCGCTCGTGGCAATTTCAAAAGCCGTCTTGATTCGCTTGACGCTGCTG,72.3
ACAAGTTTTACTCGGCACGTCAATTCGATGAAGCTAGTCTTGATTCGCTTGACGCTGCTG,88.8
AAATTACTAAGTTGAATGGTGGGTGACGCCGTATGAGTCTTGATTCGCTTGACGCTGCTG,59.2
ACCTATAACAAGCATCACAGCATATCAATGGGCGGTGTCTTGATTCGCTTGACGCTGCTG,78.3
GAGCGAGACTGCCAACACGTGCACACTCCGTCCAGAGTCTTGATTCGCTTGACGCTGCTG,1240
GTCTTGTCTCATTGGGTCGTGGGTGTCCCCACTTCAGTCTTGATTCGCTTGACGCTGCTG,70.4
CTTTCCCGATCTTTTCACGTGTTGTTAGCACATTTGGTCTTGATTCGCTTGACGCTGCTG,823
CTCTACTATGGCATCCACATGAAAACCAGTCTCAGAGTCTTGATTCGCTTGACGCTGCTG,76.7
CTAACGAAGGTTTGTCACACAACTTACAAGCCAAGTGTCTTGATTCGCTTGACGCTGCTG,93
CCGGGGGCATATTGACGCGTGGAAGAATAGAAGTCCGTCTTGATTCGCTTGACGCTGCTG,78.7
CTAACGAAGGTTTGTCACTAGACTTACAAGCCAAGTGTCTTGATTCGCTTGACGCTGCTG,73.6
TAACAACAGGACCATCACGTGAAACTTCGACGGCTTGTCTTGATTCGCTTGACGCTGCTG,1650
ATTCAAGAGATCCATCTCGTGACGGTGAAAAAATTTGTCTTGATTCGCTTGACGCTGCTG,511
GAAAATTGCCGTTGTCATGCTGAGCATTTGTCGTACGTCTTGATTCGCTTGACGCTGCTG,79.1
GAAATGGAGCATTCACACGTGAAGATTTTTAGGGGAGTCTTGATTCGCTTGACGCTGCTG,646
CTTCTGTAAATTTGCCACGTGTTTTGACGCGCCCCGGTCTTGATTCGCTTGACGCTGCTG,967

# Study 5
# Target: Sal-like protein 4, full length isoform A (SALL4, Homo sapiens, UniProt Q9UJQ4, residues 1-1053)
# UniProt Q9UJQ4, sequence (whole entry, looked up): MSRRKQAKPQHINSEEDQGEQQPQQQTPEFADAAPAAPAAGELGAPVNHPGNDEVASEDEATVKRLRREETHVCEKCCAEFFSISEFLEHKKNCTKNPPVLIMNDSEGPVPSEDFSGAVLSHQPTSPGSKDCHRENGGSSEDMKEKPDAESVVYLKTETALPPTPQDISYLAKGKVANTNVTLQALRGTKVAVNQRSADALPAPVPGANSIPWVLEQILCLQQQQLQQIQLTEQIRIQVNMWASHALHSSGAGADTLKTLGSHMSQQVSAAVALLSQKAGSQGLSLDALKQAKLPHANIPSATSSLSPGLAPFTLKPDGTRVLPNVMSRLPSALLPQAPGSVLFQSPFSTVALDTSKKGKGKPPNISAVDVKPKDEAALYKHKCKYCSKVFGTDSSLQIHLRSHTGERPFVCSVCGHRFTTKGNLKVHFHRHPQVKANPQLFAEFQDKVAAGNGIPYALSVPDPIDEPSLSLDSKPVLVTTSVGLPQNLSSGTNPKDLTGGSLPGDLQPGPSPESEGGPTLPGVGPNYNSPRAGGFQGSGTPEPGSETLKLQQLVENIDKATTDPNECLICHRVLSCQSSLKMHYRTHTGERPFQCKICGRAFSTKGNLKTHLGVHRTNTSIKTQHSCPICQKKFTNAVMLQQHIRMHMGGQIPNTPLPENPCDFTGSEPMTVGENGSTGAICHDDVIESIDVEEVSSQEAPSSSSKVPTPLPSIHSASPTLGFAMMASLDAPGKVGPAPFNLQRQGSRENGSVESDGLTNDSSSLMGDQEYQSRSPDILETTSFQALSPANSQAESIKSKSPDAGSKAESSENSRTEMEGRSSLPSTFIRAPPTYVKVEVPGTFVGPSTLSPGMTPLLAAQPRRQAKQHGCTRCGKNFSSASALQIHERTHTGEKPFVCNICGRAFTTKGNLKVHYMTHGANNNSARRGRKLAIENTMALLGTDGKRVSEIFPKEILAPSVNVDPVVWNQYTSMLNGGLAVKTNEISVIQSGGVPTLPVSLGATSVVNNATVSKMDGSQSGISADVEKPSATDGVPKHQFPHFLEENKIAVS
# Technique: universal PBM
# Form: double-stranded DNA, one strand shown
# Matrix: in vitro
# Tested at: 600 nM
# Setting: 8-mer, flanks averaged, mean of replicates
# Direction: higher = stronger binding
Strand,E-score
GTGCAGTA,-0.0476
TACTCAGA,0.0471
AGAGTTGC,-0.0846
AACAGGAC,-0.131
CGCGATTA,-0.0136
AAGATACC,0.0709
CGCCCCTC,-0.437
TAGCAACA,0.187
GTGTACAC,0.0833
AAGTCCCC,-0.217
CGATCTCC,-0.238
GACCGTCA,-0.1
ACCATAAC,0.247
AAGAGGTG,-0.0897
GTGACCGA,-0.141
CGGGAATA,0.0507
CAAAGACA,0.0981
AACCGCCG,-0.219
TAAGATAA,0.155

# Study 6
# Target: Fragile X messenger ribonucleoprotein 1, C-terminal low-complexity region (Fmr1, Mus musculus, UniProt P35922)
# Technique: RNA Bind-n-Seq
# Form: RNA
# Matrix: in vitro
# Tested at: 200 nM
# Setting: whole 134-nt RNA, ends assumed
# Added: 150 mM KCl
# Reference: input library
# Direction: higher = stronger binding
Strand,log2 enrichment
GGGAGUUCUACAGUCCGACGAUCAAGUCCUGUGCUACACAUCGUAUGUACCGAAUCGGGCCCCGGGCCCCGGGCCCCGGGAAAGUAUUAUGUUACGCCGUUCGGAUCUGCACUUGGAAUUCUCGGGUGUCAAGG,-0.819
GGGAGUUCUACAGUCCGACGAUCAUUUCUCAGUUGAAGGAUGCUUACACUCUUGUCCAUCUAGACCUCAAUUACUGUUUUUCAGGAAUGUCUGAUCACAGAUACGGGGAUGGUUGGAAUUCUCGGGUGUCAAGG,-0.89
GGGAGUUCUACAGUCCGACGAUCAAGUCCUGUGCUACACAUCGUAUGUACCGAAUCGGAAAGGUUUUUUUGGUUUUUGGAAAGUAUUAUGUUACGCCGUUCGGAUCUGCACUUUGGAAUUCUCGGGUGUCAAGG,-1.24
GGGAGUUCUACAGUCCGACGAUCUAACUUUAGAGGAGGAUCUGAUGGAUAUGGCAGUGGAGGUGGAUUUGGGGAUGGCUAUAAUGGGUAUGGAGGAGGACCUGGAGGUGGCAAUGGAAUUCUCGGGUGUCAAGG,0.339
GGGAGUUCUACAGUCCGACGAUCCUCAAGUCCUGUGCUACACAUCGUAUGUACCGAAUCGGAGGAAAAAAAGGAGGAAAGUAUUAUGUUACGCCGUUCGGAUCUGCACUUCCAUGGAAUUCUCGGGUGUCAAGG,-0.121
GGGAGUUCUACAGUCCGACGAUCUAACUUUAGAGGAGGAUCUGAUGGAUAUGGCAGUGGACGUGGAUUUGGGGAUGGCUAUAAUGGGUAUGGAGGAGGACCUGGAGGUGGCCAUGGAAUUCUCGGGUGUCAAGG,0.327
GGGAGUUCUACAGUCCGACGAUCUCCUGUGCUACACAUCGUAUGUACCGAAUCAAAUUUUUUUAAAUUUUUAAAUUUUUAAAAAAGUAUUAUGUUACGCCGUUCGGAUCUGCAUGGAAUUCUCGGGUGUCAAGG,-0.493
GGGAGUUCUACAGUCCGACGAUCAGUCCUGUGCUACACAUCGUAUGUACCGAAUCGGAAAAAGGGGAAAAAGGAAAAAGGGAAAGUAUUAUGUUACGCCGUUCGGAUCUGCACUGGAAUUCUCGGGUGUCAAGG,-0.601
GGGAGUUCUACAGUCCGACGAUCGUCCUGUGCUACACAUCGUAUGUACCGAAUCGGGAAAAAAAGGGAAAGGGAAAAAGGGAAAGUAUUAUGUUACGCCGUUCGGAUCUGCACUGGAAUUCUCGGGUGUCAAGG,-0.502
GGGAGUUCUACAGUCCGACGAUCCCUCAAGUCCUGUGCUACACAUCGUAUGUACCGAAUCGGUUGGUUGGGGUUGGAAAGUAUUAUGUUACGCCGUUCGGAUCUGCACUUCCAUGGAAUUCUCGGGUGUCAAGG,0.02
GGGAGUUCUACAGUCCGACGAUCUGGCCCUGGUGGCAUGCGGGGAGGAAGAGGUGGCCUCAUGGAUCGUGGUGGUCCCGGUGGUAUGUUCAGAGGUGGCCGUGGUGGAGACAGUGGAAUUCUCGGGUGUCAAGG,-0.00748
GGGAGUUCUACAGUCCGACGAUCCACAGACAACACGCAUCCACACAGACACAGAGGGAAGGGGUUGGGAUGGGGACAGGGUGCACAGCAGGGCGGGGUAGGACCCCAGCCCCUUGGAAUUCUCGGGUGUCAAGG,1.36
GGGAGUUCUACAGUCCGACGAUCGUCCUGUGCUACACAUCGUAUGUACCGAAUCGGGGCCCCCGGCCCCCGGCCCCCGGGGAAAGUAUUAUGUUACGCCGUUCGGAUCUGCACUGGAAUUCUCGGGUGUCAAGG,-0.462
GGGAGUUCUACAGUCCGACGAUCUCCUGUGCUACACAUCGUAUGUACCGAAUCGGGGUGGGGAAAAAAAGGGGAAAAAGGGGAAAGUAUUAUGUUACGCCGUUCGGAUCUGCAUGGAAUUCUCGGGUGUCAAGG,0.566

# For quick reference, copied from above (study 3):
Strand,E-score
AGCTCGTC,-0.157
CGAACCGC,0.332
CCCGTCCG,0.423
AGTAAGCG,0.0866
CACTGTCC,0.0552
AAAGAGCA,-0.0445
ACATCCCG,0.262
